Assay results pooled from the literature.
Lines come from different studies, so protocols differ.
Cell line: MCF7
Observed: cell growth or viability

| Compound | technique | time | GI50 |
| --- | --- | --- | --- |
| CC(C)C[C@@H](NC(=O)[C@H](C)NC(=O)CNC(=O)[C@@H](NC=O)C(C)C)C(=O)N[C@@H](C)C(=O)N[C@@H](C(=O)N[C@H](C(=O)N[C@@H](C(=O)N[C@@H](Cc1c[nH]c2ccccc12)C(=O)N[C@H](CC(C)C)C(=O)N[C@@H](Cc1c[nH]c2ccccc12)C(=O)N[C@H](CC(C)C)C(=O)N[C@@H](Cc1c[nH]c2ccccc12)C(=O)N[C@H](CC(C)C)C(=O)N[C@@H](Cc1c[nH]c2ccccc12)C(=O)NCCO)C(C)C)C(C)C)C(C)C | SRB | 48 h | 42 nM |
| N=C(N)NCCC[C@@H]1NC(=O)[C@H](CCCCN)NC(=O)[C@@H](Cc2ccc(O)cc2)NC(=O)[C@H](CC(=O)O)NC(=O)CNC1=O | MTT |  | > 100000 nM |
| CC(=O)N[C@@H](Cc1ccc(O)cc1)CN(CC(=O)N[C@@H](CCCCN)CN(CC(=O)N[C@@H](Cc1ccccc1)CN(CC(=O)N[C@H]1CCCCNc2c(F)c(F)c(c(F)c2F)S(=O)(=O)c2c(F)c(F)c(c(F)c2F)NCCCC[C@@H](CN(CC(=O)N[C@@H](C)CN(CC(N)=O)S(C)(=O)=O)S(C)(=O)=O)NC(=O)CN(S(=O)(=O)CC(C)C)C[C@H](CC(C)C)NC(=O)CN(S(=O)(=O)CCN)C1)S(=O)(=O)CC(C)C)S(=O)(=O)CCN)S(C)(=O)=O | CCK-8 | 72 h | 830 nM |
| O=C1c2ccccc2C(=O)c2c1ccc1c2C(C(=O)NCc2ccccc2)C(=O)C1c1ccccc1 (stereo not shown) |  |  | 10.3 µg/mL |
| COc1cc([C@@H]2c3cc4c(cc3[C@@H](OCc3cc(-c5ccc(C#N)cc5)no3)[C@H]3COC(=O)C23)OCO4)cc(OC)c1OC (stereo partly shown) | SRB | 48 h | 420 nM |
| CC/C=C\C/C=C\C/C=C\C/C=C\C/C=C\C/C=C\CCC(=O)Nc1ccn(C2OC(CO)C(O)C2(F)F)c(=O)n1 (stereo not shown) | SRB |  | < 10 nM |
| CCCC(C)NC(=O)C(Nc1ccccc1C(=O)c1ccccc1)c1cn(C)c2ccccc12 (stereo not shown) | MTT | 72 h | 6000 nM |
| O=C1c2ccccc2C(=O)c2c1ccc1c2C(C(=O)Nc2ccc(Cl)cc2)C(=O)C1c1ccccc1 (stereo not shown) |  |  | 45.2 µg/mL |
| COc1cc([C@@H]2c3cc4c(cc3[C@@H](OCc3cc(-c5cccc(C#N)c5)no3)[C@H]3COC(=O)C23)OCO4)cc(OC)c1OC (stereo partly shown) | SRB | 48 h | 2520 nM |
| Cc1ccc(NC(=O)C2C(=O)C(c3ccccc3)c3ccc4c(c32)C(=O)c2ccccc2C4=O)cc1 (stereo not shown) |  |  | 45.9 µg/mL |
| CC(Cc1ccc(Cl)cc1)=C(c1ccc(Cl)cc1)c1ccc(OCCN(C)C)cc1 | SRB |  | 1700 nM |
| CC(=O)N[C@@H](Cc1ccc(O)cc1)CN(CC(=O)N[C@@H](CCCCN)CN(CC(=O)N[C@@H](Cc1ccccc1)CN(CC(=O)N[C@H]1CCCCNc2c(F)c(F)c(c(F)c2F)S(=O)(=O)c2c(F)c(F)c(c(F)c2F)NCCCC[C@@H](CN(CC(=O)N[C@@H](C)CN(CC(N)=O)S(C)(=O)=O)S(C)(=O)=O)NC(=O)CN(S(=O)(=O)CC(C)C)C[C@H](Cc2ccccc2)NC(=O)CN(S(=O)(=O)CCN)C1)S(=O)(=O)CC(C)C)S(=O)(=O)CCN)S(C)(=O)=O | CCK-8 | 72 h | 10100 nM |
| O=C1c2ccccc2C(=O)c2c1ccc1c2C(C(=O)Nc2ccccc2Cl)C(=O)C1c1ccccc1 (stereo not shown) |  |  | 18.5 µg/mL |
| CC(=C(c1ccc(O)cc1)c1ccc(Cl)cc1)c1ccc(Cl)cc1 | SRB |  | 820 nM |
| CC(C)C1=C(O)C(=O)C2=C(C1=O)[C@H](OC=O)[C@@H](O)[C@H]1C(C)(C)CCC[C@]21C | SRB | 48 h | 7900 nM |
| CC(=O)c1cccc(NC2C(N)C(NC(=O)N(C)C)(C(C)O)C(O)C2(O)COC(=O)c2c(C)cccc2O)c1 (stereo not shown) | SRB |  | 51 nM |

Some of these lines once more:
| Compound | technique | time | GI50 |
| --- | --- | --- | --- |
| O=C1c2ccccc2C(=O)c2c1ccc1c2C(C(=O)Nc2ccccc2Cl)C(=O)C1c1ccccc1 (stereo not shown) |  |  | 18.5 µg/mL |
